Results gathered from unrelated publications.
Compare with care: the assays were run in different laboratories. ± gives the spread as reported.
SIRT3: NAD-dependent protein deacetylase sirtuin-3, mitochondrial (SIRT3, Homo sapiens, UniProt Q9NTG7)
Sequence of UniProt Q9NTG7 (whole entry, looked up): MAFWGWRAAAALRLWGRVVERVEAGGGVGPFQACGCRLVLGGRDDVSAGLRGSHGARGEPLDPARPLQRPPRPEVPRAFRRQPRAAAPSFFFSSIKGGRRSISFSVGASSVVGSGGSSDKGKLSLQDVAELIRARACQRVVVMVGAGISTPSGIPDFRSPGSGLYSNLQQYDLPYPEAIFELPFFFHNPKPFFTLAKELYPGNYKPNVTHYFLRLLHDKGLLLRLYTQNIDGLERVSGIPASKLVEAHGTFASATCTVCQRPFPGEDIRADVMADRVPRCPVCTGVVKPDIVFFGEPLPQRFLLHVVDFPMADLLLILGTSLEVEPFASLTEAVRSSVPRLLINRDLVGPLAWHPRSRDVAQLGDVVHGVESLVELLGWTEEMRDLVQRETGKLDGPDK
Sequence of UniProt P41968 (whole entry, looked up): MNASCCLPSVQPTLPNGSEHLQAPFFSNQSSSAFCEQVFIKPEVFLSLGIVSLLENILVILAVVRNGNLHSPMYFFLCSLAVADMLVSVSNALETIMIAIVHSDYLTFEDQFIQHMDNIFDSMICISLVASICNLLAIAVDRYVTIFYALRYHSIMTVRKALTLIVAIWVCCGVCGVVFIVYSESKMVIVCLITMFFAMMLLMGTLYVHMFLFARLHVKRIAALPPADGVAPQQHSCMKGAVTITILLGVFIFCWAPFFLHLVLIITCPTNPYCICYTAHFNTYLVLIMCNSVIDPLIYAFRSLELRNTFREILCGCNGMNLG
Sequence of UniProt Q86X55 (whole entry, looked up): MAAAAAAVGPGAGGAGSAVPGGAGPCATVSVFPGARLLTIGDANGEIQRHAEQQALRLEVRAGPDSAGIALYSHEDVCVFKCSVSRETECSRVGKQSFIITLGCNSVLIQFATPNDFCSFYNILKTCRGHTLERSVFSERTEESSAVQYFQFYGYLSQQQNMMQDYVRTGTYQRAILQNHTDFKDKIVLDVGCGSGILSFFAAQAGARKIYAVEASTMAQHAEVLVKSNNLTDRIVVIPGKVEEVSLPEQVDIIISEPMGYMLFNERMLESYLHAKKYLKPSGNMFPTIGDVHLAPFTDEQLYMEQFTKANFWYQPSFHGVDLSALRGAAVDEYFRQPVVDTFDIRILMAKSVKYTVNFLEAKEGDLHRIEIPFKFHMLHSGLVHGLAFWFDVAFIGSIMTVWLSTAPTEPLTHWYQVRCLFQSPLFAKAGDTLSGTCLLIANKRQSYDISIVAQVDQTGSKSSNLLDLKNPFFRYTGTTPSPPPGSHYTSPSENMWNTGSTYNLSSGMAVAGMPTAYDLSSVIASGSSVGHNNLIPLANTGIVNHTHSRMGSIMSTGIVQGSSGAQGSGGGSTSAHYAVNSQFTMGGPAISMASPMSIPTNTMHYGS
Sequence of UniProt Q9UPE1 (whole entry, looked up): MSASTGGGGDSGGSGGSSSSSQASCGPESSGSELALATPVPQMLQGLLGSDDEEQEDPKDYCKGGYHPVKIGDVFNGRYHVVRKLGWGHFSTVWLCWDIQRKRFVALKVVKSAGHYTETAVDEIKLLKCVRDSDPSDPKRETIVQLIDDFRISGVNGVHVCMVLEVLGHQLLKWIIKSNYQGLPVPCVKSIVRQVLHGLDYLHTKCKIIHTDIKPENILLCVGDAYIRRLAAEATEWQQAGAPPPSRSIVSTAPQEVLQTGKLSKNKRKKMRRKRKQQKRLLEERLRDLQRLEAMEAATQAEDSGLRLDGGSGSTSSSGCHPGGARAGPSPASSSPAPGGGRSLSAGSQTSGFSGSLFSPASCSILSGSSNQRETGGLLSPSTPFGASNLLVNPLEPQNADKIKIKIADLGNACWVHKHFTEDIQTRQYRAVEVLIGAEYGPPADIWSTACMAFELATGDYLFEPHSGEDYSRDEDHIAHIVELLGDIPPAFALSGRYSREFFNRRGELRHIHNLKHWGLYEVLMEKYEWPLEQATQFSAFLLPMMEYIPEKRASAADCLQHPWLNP
Sequence of UniProt P00690 (whole entry, looked up): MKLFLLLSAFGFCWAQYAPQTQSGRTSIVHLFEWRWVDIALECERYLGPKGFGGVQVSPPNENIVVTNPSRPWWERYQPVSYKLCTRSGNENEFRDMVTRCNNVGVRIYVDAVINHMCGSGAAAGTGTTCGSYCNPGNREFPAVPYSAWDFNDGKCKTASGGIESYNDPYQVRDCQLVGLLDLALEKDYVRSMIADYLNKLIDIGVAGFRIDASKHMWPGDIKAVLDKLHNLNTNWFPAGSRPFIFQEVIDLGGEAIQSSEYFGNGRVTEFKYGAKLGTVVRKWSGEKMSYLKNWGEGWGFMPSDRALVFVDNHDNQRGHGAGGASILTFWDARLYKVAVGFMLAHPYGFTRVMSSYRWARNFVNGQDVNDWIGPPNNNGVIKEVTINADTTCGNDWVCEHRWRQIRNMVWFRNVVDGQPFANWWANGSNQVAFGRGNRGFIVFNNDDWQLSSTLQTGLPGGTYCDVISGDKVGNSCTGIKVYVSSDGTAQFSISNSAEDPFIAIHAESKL
Sequence of UniProt P32248 (whole entry, looked up): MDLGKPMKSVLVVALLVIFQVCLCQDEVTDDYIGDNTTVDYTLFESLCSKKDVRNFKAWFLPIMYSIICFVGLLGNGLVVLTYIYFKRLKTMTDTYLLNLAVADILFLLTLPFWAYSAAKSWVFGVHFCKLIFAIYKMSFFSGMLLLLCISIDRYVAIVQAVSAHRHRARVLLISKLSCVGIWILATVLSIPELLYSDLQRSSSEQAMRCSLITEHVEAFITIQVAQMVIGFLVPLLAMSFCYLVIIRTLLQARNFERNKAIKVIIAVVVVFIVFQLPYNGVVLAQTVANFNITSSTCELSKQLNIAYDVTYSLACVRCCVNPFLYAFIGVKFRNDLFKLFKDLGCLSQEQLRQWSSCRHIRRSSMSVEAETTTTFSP
Sequence of UniProt Q8BTI9 (whole entry, looked up): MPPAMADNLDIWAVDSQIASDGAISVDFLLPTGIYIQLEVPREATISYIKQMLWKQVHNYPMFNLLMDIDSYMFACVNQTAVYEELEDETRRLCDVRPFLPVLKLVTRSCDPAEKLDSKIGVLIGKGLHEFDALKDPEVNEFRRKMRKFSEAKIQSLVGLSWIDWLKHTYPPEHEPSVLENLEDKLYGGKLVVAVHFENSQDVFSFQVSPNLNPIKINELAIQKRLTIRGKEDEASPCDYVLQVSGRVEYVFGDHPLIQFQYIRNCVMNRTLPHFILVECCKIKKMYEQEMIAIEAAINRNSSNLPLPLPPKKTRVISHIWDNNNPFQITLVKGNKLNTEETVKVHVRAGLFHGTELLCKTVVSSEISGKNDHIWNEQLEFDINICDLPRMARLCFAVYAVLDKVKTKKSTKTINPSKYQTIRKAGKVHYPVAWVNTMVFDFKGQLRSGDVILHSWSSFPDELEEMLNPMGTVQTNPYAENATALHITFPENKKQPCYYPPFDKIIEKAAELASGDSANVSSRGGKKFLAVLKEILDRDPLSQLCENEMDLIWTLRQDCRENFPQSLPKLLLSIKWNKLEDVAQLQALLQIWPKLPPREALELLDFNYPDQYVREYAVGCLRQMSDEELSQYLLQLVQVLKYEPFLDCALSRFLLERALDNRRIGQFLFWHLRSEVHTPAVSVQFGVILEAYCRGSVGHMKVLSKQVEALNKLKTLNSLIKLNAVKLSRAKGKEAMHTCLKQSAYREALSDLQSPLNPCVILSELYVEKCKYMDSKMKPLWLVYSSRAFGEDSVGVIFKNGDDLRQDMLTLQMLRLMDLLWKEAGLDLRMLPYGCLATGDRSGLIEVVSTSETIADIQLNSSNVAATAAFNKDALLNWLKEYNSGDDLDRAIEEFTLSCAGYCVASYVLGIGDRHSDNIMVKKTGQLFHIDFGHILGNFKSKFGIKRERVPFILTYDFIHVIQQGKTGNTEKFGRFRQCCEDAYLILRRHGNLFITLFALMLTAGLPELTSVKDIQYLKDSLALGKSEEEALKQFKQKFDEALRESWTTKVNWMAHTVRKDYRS
Sequence of UniProt P28566 (whole entry, looked up): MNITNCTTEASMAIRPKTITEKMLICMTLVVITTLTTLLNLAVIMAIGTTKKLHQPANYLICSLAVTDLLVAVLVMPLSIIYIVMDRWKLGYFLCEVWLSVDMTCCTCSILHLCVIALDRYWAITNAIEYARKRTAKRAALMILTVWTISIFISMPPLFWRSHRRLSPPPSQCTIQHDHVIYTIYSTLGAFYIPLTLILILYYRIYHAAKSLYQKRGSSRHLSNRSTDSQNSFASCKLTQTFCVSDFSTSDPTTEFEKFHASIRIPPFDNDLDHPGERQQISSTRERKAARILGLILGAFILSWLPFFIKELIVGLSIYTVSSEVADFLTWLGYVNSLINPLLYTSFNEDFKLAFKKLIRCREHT
Sequence of UniProt Q9NZQ7 (whole entry, looked up): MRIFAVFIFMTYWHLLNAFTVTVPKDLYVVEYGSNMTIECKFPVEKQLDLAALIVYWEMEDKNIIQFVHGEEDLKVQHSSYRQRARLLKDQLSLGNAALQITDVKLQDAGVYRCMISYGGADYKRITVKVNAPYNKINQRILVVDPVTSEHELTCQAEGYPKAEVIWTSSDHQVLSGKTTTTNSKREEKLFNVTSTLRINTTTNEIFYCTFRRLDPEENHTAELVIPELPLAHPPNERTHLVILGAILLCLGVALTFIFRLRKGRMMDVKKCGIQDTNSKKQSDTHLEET

| Structure (SMILES) | target or system | test | test system | setting | scale | quantity | value |
| --- | --- | --- | --- | --- | --- | --- | --- |
| C[Si](C)(C)C[C@H](CN)CC(=O)O | KATP channel, human | binding, radioligand binding |  | 250 µM, together with: [3H]glyburide |  | inhibition | 4% |
| C[C@H](NC(=O)[C@H](CC(=O)NCC(C)(C)C)NC(=O)CCc1ccccc1)C(=O)NCc1ccccc1Cl | chymotrypsin | enzyme activity, inhibitor |  | 100 µM |  | inhibition | 2% |
| Cc1ncsc1-c1ccc(C(C)NC(=O)C2CC(O)CN2C(=O)C(NC(=O)CCCCCCCCCCN2CCCC(Nc3ncc(Cl)c(Nc4ccccc4S(=O)(=O)C(C)C)n3)C2)C(C)(C)C)cc1 (stereo not shown) | 22Rv1 | RNA-seq, item: MGAT2 mRNA |  | concentration not given | relative to: DMSO | log2 fold change | -1.11 |
| Cc1ccc(CNC(=O)[C@H](CCc2ccccc2)NC(=O)[C@H](CCc2ccccc2)NC(=O)Cc2cccc(Oc3ccccc3)c2)cc1 | trypsin | enzyme activity, inhibitor |  | 100 µM |  | inhibition | 0% |
| O=c1c(O)c(-c2ccc(O)cc2O)oc2c(Br)c(O)c(Br)c(O)c12 | AMY2 (Sus scrofa, UniProt P00690) | enzyme activity, inhibitor |  | 50 µM, together with: CNP-G3 substrate |  | inhibition | 98.7 ± 1.72% |
| C[C@@H](O)[C@H](NC(=O)c1ccc(OCc2ccccc2)cc1)C(=O)N[C@@H](CCc1ccccc1)C(=O)NCc1ccccc1Cl | chymotrypsin | enzyme activity, inhibitor |  | 100 µM |  | inhibition | 9% |
| O=C1c2sc(-c3ccc(N4CCC(CO)CC4)nc3F)nc2CCN1c1cccnc1 | MC3R (Homo sapiens, UniProt P41968) | ligand displacement, radioligand |  | 1 µM |  | inhibition | -10% |
| CC(=S)NCCCC[C@H](NC(=O)OCc1ccccc1)C(=O)N[C@@H](Cc1c[nH]c2ccccc12)C(=O)NC(C)C | SIRT3 | enzyme activity, inhibitor |  | 10 µM |  | inhibition | 15% |
| Cc1ccc(-c2nn(-c3ccc(S(C)(=O)=O)cc3)cc2/C=N/N=C2/NC(=O)CS2)cc1 | EGFR (Homo sapiens, UniProt P00533, L858R) | kinase activity, inhibitor |  | 0.01 µM |  | inhibition | 33.3% |
| O=C(CN1CCO[C@@H](COc2cccc(Cl)c2)C1)N1CCc2ccccc21 | HTR1E (Homo sapiens, UniProt P28566) | radioligand binding |  | concentration not given, together with: [3H]5-HT |  | inhibition | 4.5% |
| COC1CN([C@H]2CC[C@H]([C@@]3(C)Oc4c(Cl)cc(C(=O)NCc5c(SC)cc(C)[nH]c5=O)c(C)c4O3)CC2)C1 |  | RNA-seq, item: NBEA | human, whole blood | dose not given, 24 h | relative to: pretreatment baseline | log2 fold change | 1.61 |
| C[Si]1(C[C@H](CN)CC(=O)O)CCCC1 | AMPA receptor, rat | binding, radioligand binding |  | 70 µM, together with: [3H]AMPA |  | inhibition | -2% |
| CSCC[C@H](NC(=O)[C@H](Cc1ccccc1)NC(=O)[C@H](Cc1c[nH]c2ccccc12)NC(=O)[C@H](C)NC(=O)[C@H](Cc1c[nH]c2ccccc12)NC(=O)[C@H](Cc1c[nH]c2ccccc12)NC(=O)[C@H](CCC(=O)O)NC(C)=O)C(N)=O | Programmed cell death 1 ligand 1, with PD-1 (CD274, Homo sapiens, UniProt Q9NZQ7) | PD-1/PD-L1 binding, ELISA |  | 10 µM |  | inhibition | 56.8 ± 3.7% |
| O=C1CO[C@H](CNC(=O)C2(c3ccc(Cl)cc3)CC2)CN1C1Cc2ccccc2C1 | CCR7 (Homo sapiens, UniProt P32248) | β-arrestin recruitment, antagonist |  | 1 µM |  | inhibition | 2% |
| CCCCCCCCCCCCNC(=S)NCCCC[C@H](NC(=O)OCc1ccccc1)C(=O)N[C@@H](Cc1ccc(O)cc1)C(=O)N[C@@H](CCCNC(=N)N)C(N)=O | SIRT3 | enzyme activity, inhibitor |  | 1 µM |  | inhibition | 18% |
| CN(C)C/C=C/C(=O)Nc1ccc2nc(NCCCCCN(C)C)nc(NCCCCCCN(C)C)c2c1 | CARM1 (Homo sapiens, UniProt Q86X55) | enzyme activity, inhibitor, radiometric |  | 10 µM |  | inhibition | 52% |
| N#Cc1ccc(NC(=O)Nc2cccc(O)c2)cc1 | SRPK3 (Homo sapiens, UniProt Q9UPE1) | binding, KINOMEscan competitive binding |  | concentration not given |  | inhibition | 72% |
| Cc1nc2c(F)cc(-c3nc(Nc4ccc(CNC(=O)CCCCCCC(=O)NO)cc4)ncc3F)cc2n1C(C)C | Phosphatidylinositol 4,5-bisphosphate 3-kinase catalytic subunit beta isoform, with p85 alpha (Pik3cb, Mus musculus, UniProt Q8BTI9) | enzyme activity |  | 1 µM, p110β/p85α)(m mouse |  | inhibition | 1% |
| C#CC(=O)Nc1ccc2nc(NCCCCCN(C)C)nc(NCCCCCCN(C)C)c2c1 | Histone-lysine N-methyltransferase SETDB1, triple Tudor domain (SETDB1, Homo sapiens, UniProt Q15047) |  |  | 1.235 µM |  | inhibition | 46.7% |
